Results from different studies.
Parts stem from different laboratories: compare values within a part only.

Series 1
Target: Ras GTPase-activating protein-binding protein 1, full length (G3BP1, Homo sapiens, UniProt Q13283)
Chain of UniProt Q13283 (whole entry, looked up): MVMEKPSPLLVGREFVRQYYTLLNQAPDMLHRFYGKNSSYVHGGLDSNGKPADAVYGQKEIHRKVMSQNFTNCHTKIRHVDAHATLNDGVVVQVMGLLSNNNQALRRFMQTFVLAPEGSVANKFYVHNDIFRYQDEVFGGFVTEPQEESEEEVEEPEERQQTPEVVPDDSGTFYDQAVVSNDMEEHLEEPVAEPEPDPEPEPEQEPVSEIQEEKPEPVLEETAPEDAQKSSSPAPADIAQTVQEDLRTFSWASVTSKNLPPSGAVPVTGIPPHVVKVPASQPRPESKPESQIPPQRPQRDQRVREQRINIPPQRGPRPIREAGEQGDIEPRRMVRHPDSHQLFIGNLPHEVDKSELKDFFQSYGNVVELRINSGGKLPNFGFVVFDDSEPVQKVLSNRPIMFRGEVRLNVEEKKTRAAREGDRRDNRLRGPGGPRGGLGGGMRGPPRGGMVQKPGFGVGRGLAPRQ
Method: RNA Bind-n-Seq
Form: RNA
Matrix: in vitro
Concentration: 200 nM
Notes: whole 134-nt RNA, ends assumed
With: 150 mM LiCl
Relative to: input library
Direction: higher = stronger binding
Each molecule: 7-deaza-guanosine replaces G
The log2 enrichment of `GGGAGUUCUACAGUCCGACGAUCCUCAAGUCCUGUGCUACACAUCGUAUGUACCGAAUCGGGAAGGGAAGGGAAGGGAAAGUAUUAUGUUACGCCGUUCGGAUCUGCACUUCCUGGAAUUCUCGGGUGUCAAGG` is reported as 0.105.
`GGGAGUUCUACAGUCCGACGAUCUAACUUUAGAGGAGGAUCUGAUGGAUAUGGCAGUGGACGUGGAUUUGGGGAUGGCUAUAAUGGGUAUGGAGGAGGACCUGGAAGUGGCAAUGGAAUUCUCGGGUGUCAAGG` gave a log2 enrichment of -0.168.
`GGGAGUUCUACAGUCCGACGAUCAAGUCCUGUGCUACACAUCGUAUGUACCGAAUCGGGGUUUGGUUUGGGGUUUGGGGAAAGUAUUAUGUUACGCCGUUCGGAUCUGCACUUUGGAAUUCUCGGGUGUCAAGG` gave a log2 enrichment of -0.669.

Series 2
Target: RNA binding protein fox-1 homolog 2, RRM domain, GST-SBP tag (RBFOX2, Homo sapiens, UniProt O43251-10, residues 100-194)
Method: RNA Bind-n-Seq
Form: RNA
Matrix: in vitro
Concentration: 365 nM
Notes: natural RNA segment, single round, ends assumed
Relative to: no-protein control
Direction: higher = stronger binding
Residues (chain): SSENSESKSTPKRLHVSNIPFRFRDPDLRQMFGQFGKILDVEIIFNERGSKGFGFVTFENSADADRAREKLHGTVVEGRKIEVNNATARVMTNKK
Under “RBNS enrichment (R)”, `GGGAGUUCUACAGUCCGACGAUCAAGCAAGUACUGCAUUUCCUAUGCAACAAAAAAAGGAAAAAUAAAAAAAAAAUUGCUAAUGCUACGGAAGCCGUGUCCUCUUUUGCUGUGUACACAAUGCCUGGGGUGAGUGGAAUUCUCGGGUGCCAA` is recorded as 2.45.
For `GGGAGUUCUACAGUCCGACGAUCAGAGAAGCUGCCUCUGUAGAGUGGCCGAUGUCACAGAGAGCCAGGCUCCAUGGGGAGCCAUCUAAGUUCUUUUCUUUUGGAAGAUUGGGUGUCUCGGAGAGUUGCCAUAUUGGAAUUCUCGGGUGCCAA`, “RBNS enrichment (R)” read 0.663.
Under “RBNS enrichment (R)”, `GGGAGUUCUACAGUCCGACGAUCGUGUUAAACAAGAACAACAAAAAAAGGUCUCAUUGUGUAGCCCUAGCUGCUUAUAACUCGCUCUGUAGACCUGGCUGGUGUCAAACUGGAGAUCCUCCUUCCUCUGCCUCUGGAAUUCUCGGGUGCCAA` is recorded as 0.349.

Series 3
Target: Prothrombin, mature alpha-thrombin (F2, Homo sapiens, UniProt P00734)
Method: aptamer microarray, sandwich
Form: DNA with 2'F-ANA
Matrix: in vitro
Concentration: 200 nM
Notes: whole 15-mer aptamer, many near background
With: Cy3 exosite-II aptamer, 400 nM
Direction: higher = stronger binding
Strand: GGTTGGTGTGGTTGG
`2'F-ANA at 1 2 3 4 6 9 11 12` — result for “mean fluorescence intensity”: 256 a.u.
`2'F-ANA at 1 6 8 9 10 15` — result for “mean fluorescence intensity”: 57.5 a.u.
`2'F-ANA at 2 4 5 7 8 10 11 13 14 15` — result for “mean fluorescence intensity”: 48.2 a.u.
For `2'F-ANA at 2 5 9`, “mean fluorescence intensity” read 126 a.u.
For `2'F-ANA at 1 3 4 7 8 10 12 13 15`, “mean fluorescence intensity” read 72.7 a.u.

Further values, each from its own experiment
For `PhoQ, residues 284 288 289 292 302 303 SLCLSL`, the fold induction was 1.15 (PhoP, residues 12 14 15 18 19 NQCAL (Escherichia coli, UniProt P23836); Sort-seq, measured: YFP reporter; E. coli; PhoQ-PhoP variant library, with: 10 µM Mg2+; relative to: high Mg2+ state, higher = stronger signaling).

Repeated from above (series 3):
For `2'F-ANA at 1 3 4 7 8 10 12 13 15`, “mean fluorescence intensity” read 72.7 a.u.
